Experimental data of several laboratories.
Several values in a cell are separate wells, animals, samples, runs or records. Numbers after ± are the reported error.

| Structure (SMILES) | cell line | test | system | conditions | how to read | quantity | value |
| --- | --- | --- | --- | --- | --- | --- | --- |
| Cc1n[nH]c2nc(-c3ccc(Cl)cc3)c3c(NC(=O)c4ccccc4)nnc-3n12 | Malme-3M | SRB |  | 10 µM, NCI60 single-dose screen | baseline: untreated | cell growth | 96% |
| C=CC1=C(C)c2cc3[n-]c(cc4nc(cc5[n-]c(cc1n2)c(C)c5C=C)C(C)=C4CCC(=O)O)c(CCC(=O)O)c3C.[Zn+2] | SH-SY5Y | RNA-seq, refers to: RYR3 mRNA |  | 5 µM, 5 h | baseline: untreated cells | fold change | 2.18 |
| Cc1ccc(CNC(=O)Cn2cc(CSc3nc4ccccc4[nH]3)nn2)cc1 | MDA-MB-231 | MTT |  | 15.6 ppm |  | cytotoxicity | 81.4% |
| CCCCCCCC(=O)Oc1c(C)c(O)c(C(=O)/C=C/c2ccccc2)c(OC)c1C | FaDu | SRB |  |  | baseline: normal over FaDu IC50 | selectivity index | 1.22 |
| c1ccc2[nH]ccc2c1 | HCT-8 | RNA-seq, refers to: CHAC1 |  | concentration not given |  | mRNA level, LS mean | 100 counts per million |
| [Cl-].[Cl-].[Os+2].c1cnc2c(c1)ccc1cccnc12.c1cnc2c(c1)ccc1cccnc12.c1cnc2c(c1)ccc1cccnc12 | SK-MEL-28 | sulforhodamine B |  | normoxia, with: red light 633 nm |  | GI50 | 15.2 µM |
| CSCC[C@H](NC(=O)[C@H](Cc1ccc(OS(=O)(=O)O)cc1)NC(=O)[C@@H](N)CC(=O)O)C(=O)NCC(=O)N[C@@H](Cc1c[nH]c2ccccc12)C(=O)N[C@@H](CCSC)C(=O)N[C@@H](CC(=O)O)C(=O)N[C@@H](Cc1ccccc1)C(N)=O | HEK293T control virus | agonist, calcium mobilization |  | 400 nM, no receptor expressed | higher = more calcium release | calcium response | 0.0956 a.u. and 0.0771 a.u. |
| Nc1cccc2c1C(=O)N(C1CCC(=O)NC1=O)C2=O (stereo not drawn) | bone marrow CD138+ myeloma cells | XTT |  | 0.6 µM, mean of three patients |  | viability | 114% |
| C[C@@H]1CN(C(=O)c2ccc(NC(=O)c3cc(O[C@H](C)c4c(Cl)ccc(F)c4Cl)c(N)nn3)cc2)C[C@H](C)N1 | Ba/F3 EML4-ALK v1 | cell viability |  |  |  | Emax | 99.3% |
| COc1cnc2cccc(N3CCc4c(cc(Cn5ccnc5C)cc4-c4cn(C)nc4C(F)(F)F)C3=O)c2c1 | PSN1 | cell growth, inhibitor |  | 120 h |  | EC50 | 0.141 µM |
| COC(=O)Nc1nc2ccc(C(=O)c3cccs3)cc2[nH]1 | tsFT210 G2-synchronised | flow cytometry |  | 100 nM, 4 h after release at 32 °C |  | G1 cells | 2.7% |
| CC1(C)COc2ccc(F)cc2CN2c3nc4c(cnn4cc3OC[C@H]2C(F)F)C(=O)N1 | Ba/F3 EML4-ALK variant 1 S1206Y | cell viability |  |  |  | Emax | 98.8% |
| Cn1cc(-n2cnc3c(NCc4nc5cc(Cl)c(Cl)cc5[nH]4)nc(N4CCOCC4)nc32)cn1 | MDA-MB-468 | cell viability, CellCounting-Lite |  | 666.7 nM, 37 °C | higher = more viable cells | luminescence signal | 48700 a.u. and 43000 a.u. and 41900 a.u. |
| Cc1c(C(=O)O)ccc2c3n(nc12)[C@@H]1[C@H](C3)N(CC2CC2)[C@@]2(C(=O)Nc3cc(Cl)ccc32)[C@H]1c1cccc(Cl)c1F | JAR (MDM2-amplified) | cell proliferation, alamarBlue |  | 120 h |  | IC50 | 0.024 µM |
| O=C1N(Cc2cccc3ccccc23)c2ccccc2C12NN=C(c1ccccc1)S2 (stereo not drawn) | SK-N-BE(2) and SK-N-SH neuroblastoma | MTT |  | 10 µM, 24 h |  | viability loss | 50 to 60% |
| O=C(/C=C/C=C/C=C/C1CCCCC1)NC1=C[C@@](O)(/C=C/C=C/C=C/C(=O)NC2=C(O)CCC2=O)[C@@H]2O[C@@H]2C1=O | lmsu | cell growth, inhibitor, CellTiter-Glo luminescence |  | 78 h | baseline: day 0 cell count | GI50 | 9.46 µM |
| CC(C)(C)c1cc(O)ccc1O | HepG2 | respiratory reserve capacity, extracellular flux |  | 1 h, distribution mode 1 |  | point of departure | 0.0112 µM |
| O=c1[nH]nc(OCCCc2ccc(Cl)cc2)c(NCc2cccnc2)c1Br | HEK-293T | RNA-seq GSEA, refers to: HALLMARK_E2F_TARGETS |  | concentration not given | direction not given | normalized enrichment score | -1.42 |
| C#C[C@@]1(O)[C@@H](CO)O[C@@H](n2cc(Cl)c3c(N)ncnc32)[C@@H]1O | NCI60 panel | cell viability |  | mean over panel |  | LC50 | -4.16 log M and -4.25 log M |
| Clc1nc(NCc2ccco2)c2[nH]cnc2n1 | iPSC-derived cardiomyocytes | RNA-seq, refers to: PSMA3-AS1 chr14 exon ending 58285756 |  | unit not given | baseline: DMSO minus compound | ΔPSI | 0.266 |
| CC(=O)c1nn(-c2ccc(C)cc2)/c(=N/N=C(\C)c2ccc(NC(=O)c3ccccc3)cc2)s1 | MCF7 | MTT |  | 2.5 µM |  | cytotoxicity | 93.5% |
| Cl | human neutrophils | anion exchange, substrate, trans-stimulated sulfate efflux |  | 85 mM K+, glucuronate medium, with: nigericin 2 µM |  | Km | 22.4 mM |
| CC(=O)c1nn(-c2ccc(Cl)cc2)/c(=N/N=C(\C)c2ccc(NC(=O)c3ccc(Cl)cc3)cc2)s1 | MCF7 |  |  | 2.5 µM |  | viability | 87.5% |

| Structure (SMILES) | cell line | test | system | conditions | how to read | quantity | value |
| --- | --- | --- | --- | --- | --- | --- | --- |
| CCCCc1oc2ccccc2c1C(=O)c1cc(I)c(OCCN(CC)CC)c(I)c1 | human embryonic stem cell aggregates | microarray |  | 4 µM, 120 h |  | uniquely up-regulated genes number | 253 |
| Cn1cc(-c2ccc(-c3cncc(Cl)c3N3CCC4(CCNC4=O)CC3)cc2)cn1 | COLO 205 | gene expression, microarray, refers to: RSAD2 mRNA |  | concentration not given, 2 h | baseline: untreated cells | log2 fold change | 2.56 |
| CC/C(=N\NC(=O)NCc1cccc(O)c1)c1ccc(O)c(C)c1O | SK-OV-3 | Western blot, refers to: YAP |  | 10 µM, 6 h, 2D culture, unit not given | baseline: β-actin | protein level | 1.37 ± 0.17 |
| Cc1cc(Nc2ncc(Cl)c(Nc3ccccc3S(=O)(=O)C(C)C)n2)c(OC(C)C)cc1C1CCNCC1 | CLB-BAR | phosphoproteomics LC-MS/MS, refers to: WDR62 phosphorylation |  | 200 nM, 60 min | baseline: untreated | log2 fold change | -1.58 |
| CC1CC(OC(=O)C(O)c2ccccc2)CC(C)(C)C1 (stereo not drawn) | MCF-10A | CellTiter-Glo |  | concentration not given | baseline: normalised, mean of replicates | viability | 88.5% |
| CC1(C)CCC(CN2CCN(c3ccc(C(=O)NS(=O)(=O)c4ccc(NCC5CCOCC5)c([N+](=O)[O-])c4)c(Oc4cnc5[nH]ccc5c4)c3)CC2)=C(c2ccc(Cl)cc2)C1 | THP-1 | annexin V/PI flow cytometry, refers to: annexin V-/PI+ |  | 0.2 µM, 24 h |  | necrotic cells | 0.1% |
| Cc1nn(-c2nc3c(F)cc(F)cc3s2)c(O)c1C(c1ccc(C(F)(F)F)cc1)c1c(C)nn(-c2nc3c(F)cc(F)cc3s2)c1O | THP1-Dual | IFN luciferase reporter |  | 1.25 µM, with: HT-DNA |  | inhibition | -0.869% and 0.012% and 5.55% and 1.26% and -6.28% and -6.65% |
| CN1CCN(c2ccc3[nH]c(-c4ccc5[nH]c(-c6ccc(C(F)(F)F)cc6)nc5c4)nc3c2)CC1 | Malme-3M | SRB |  | 10 µM, 48 h |  | growth percent | 18% |
| Cc1ccc(Cn2cc(COc3cccc(Cc4cnc(NC(=O)CSc5nc(C)cc(C)n5)s4)c3)nn2)cc1 | PC-3M-luc | colony formation, colony forming |  | 25 µM |  | inhibition | 32.9 ± 5.4% |
| COc1ccc(NC(=O)c2c(Nc3ccccc3)sc(C(=O)NN=Cc3ccc(OC)c(O)c3)c2NC(C)=O)cc1 | HepG2 | ELISA |  | IC50, 24 h |  | Bax level | 215 ± 30.1 pg/mL |
| C=CCn1c(=O)c2cnc(Nc3ccc(N4CCN(C)CC4)cc3)nc2n1-c1ccc2c(n1)[C@@](O)(CC)CC2 | MDA-MB-231 | flow cytometry |  | concentration not given |  | S phase cells | 17.9% |
| CCCCN1C[C@H](O)[C@@H](O)[C@@H](O)[C@H]1CO | sample B patient fibroblasts | Gb3 level lowering, LC-MS/MS, refers to: Gb3 d18:1/16:0 |  | 216 h |  | IC50 | 8.7 µM |
| C=Cc1c2[n-]c(c1C)/C=c1\[n-]/c(c(C)c1C=C)=C\c1[n-]c(c(CCC(=O)O)c1C)/C=c1\[n-]c(c(C)c1CCC(=O)O)=C2.[Sn+4] | SH-SY5Y | RNA-seq, refers to: FHL2 mRNA |  | 5 µM, 5 h | baseline: untreated cells | fold change | 1.95 |
| CCN(CC)C(=O)N1CCN(C)CC1 | MCF-10A | CellTiter-Glo |  | concentration not given | baseline: normalised, mean of replicates | viability | 105% |
| CC(CN(C)C)CN1c2ccccc2CCc2ccccc21 (stereo not drawn) | hCMEC/D3 | H+/OC antiport |  | 250 µM, 2 min, with: preloaded DPH |  | trans-stimulated efflux | ≤ 90% |
| Cl.Cl.NCCNS(=O)(=O)c1ccc(Cl)c2ccncc12 | SK-OV-3 | ATP | 2D monolayer culture | 1 µM, 4 days | baseline: untreated | relative cell number | 118% |
| CCn1cc(-c2cc(Cn3ccoc3=N)cc3c2CCN([C@@H](C)c2cc(OC)ccn2)C3=O)c(C(F)(F)F)n1 | GCIY | cell growth, inhibitor |  | 120 h |  | EC50 | 0.857 µM |
| CC(C)(C)C(=O)Oc1ccc(S(=O)(=O)Nc2ccccc2C(=O)NCC(=O)O)cc1 | human peripheral blood neutrophils | flow cytometry FSC/SSC |  | 50 µM, with: TNF-α 5 ng/mL, MPO-ANCA immune complex | baseline: unstimulated neutrophils | neutrophil swelling | 2.62 fold change and 2.19 fold change and 3.95 fold change and 3.03 fold change |
| NNc1nc(-c2ccc(Cl)cc2)c2c(NC(=O)c3ccccc3)nnc-2[nH]1 | MDA-MB-231/ATCC | NCI60 SRB |  | 10 µM |  | growth percent | 77% |
| CC(C)(C)c1nc(-c2cccc(NS(=O)(=O)c3c(F)cccc3F)c2F)c(-c2ccnc(N)n2)s1 | A2780/CP | annexin V/PI flow cytometry |  | concentration not given, 48 h | baseline: untreated | early apoptotic cells | 42.3 ± 4.7% |
| CCn1cc(-c2cc(Cn3ccnc3)cc3c2CCN([C@H](c2cc(OC)ccn2)C2CC2)C3=O)c(C(F)(F)F)n1 | HuCCT-1 | cell growth, inhibitor |  | 120 h |  | EC50 | > 30 µM |
| Cn1cc(Nc2nccc(-c3ccc4c(c3)CN(C3COC3)CC[C@H]4NC(=O)c3cn(C(C)(C)C)nn3)n2)cn1 | human B cells |  |  | 100 nM, 64 h, stimulation-downregulated genes, with: CpG ODN2006 |  | number of upregulated genes | 124 |
